Measurements gathered from unrelated publications.
Lines come from different studies, so protocols differ. “And” joins repeats or separate records; there may be more than shown. ± marks the error that the study gave.

COc1ccc(C[C@@H](C)[C@@H](C)Cc2ccc(OC)c(OC)c2)cc1OC
AUC(0-t) (beagle dog female, plasma; oral, 100 mg/kg/day, day 28): 11300 ± 1920 ng·h/mL

Cc1cccc(CNC(=O)c2cn(CCNC(=O)c3ccccc3S)c3cc4c(cc3c2=O)OC(F)(F)O4)n1
bioavailability (Sprague-Dawley rat, male, plasma; intramuscular, 3 mg/kg of parent drug): 88%

C[C@@H](N)C1CCN(S(=O)(=O)c2cccc3cnccc23)CC1
discontinuations due to TEAEs (healthy volunteers; 150 mg, fasted): 0%

Cc1cc(C)cc(C(=O)c2c(C(C)C)c(=O)[nH]c(=O)n2Cc2ccnc(N)c2)c1
AUMC (male Sprague-Dawley rat, plasma; intravenous, 20 mg/kg): 0.659 ± 0.195 µg·h²/mL

O=C(Nc1cnccc1Cl)N1CCN(Cc2ccc3c(c2)OC(F)(F)O3)CC1
renal clearance (healthy young women, urine; oral, 100 mg once daily, day 10): 0.0108 L/h

Cc1c(-c2ccc(N3CCc4cccc(C(=O)Nc5nc6ccccc6s5)c4C3)nc2C(=O)O)cnn1CC12CC3(C)CC(C)(C1)CC(OCCNCC[C@H](O)CO)(C3)C2
mean arterial pressure change (beagle dog, male, anaesthetised; intravenous infusion, 0.01 mg/kg/min, 10 min; baseline: baseline): -1 mmHg

CNc1ccc(-c2nc3ccc(O)cc3s2)cc1 [carbon-11 labelled]
SUV (microPET/CT imaging; B6SJL mouse, normal, brain; intravenous, 15 min): 0.266 ± 0.088

C[C@@H]1OC(=O)[C@H](Cc2ccccc2)[C@H]1O
DT50 whole system (Swiss Lake sand sediment, aerobic dark; 20 °C): 23.1 days

C[C@@H](c1nc(-c2ccc(C#N)cc2)cs1)[C@](O)(Cn1cncn1)c1cc(F)ccc1F
subjects with TEAEs (item: gastrointestinal disorders (SOC); humans; oral, dose not given, together with: ketoconazole): 8.3%

OCc1nc2ccc(NCc3ccc(C(F)(F)F)cc3)cc2[nH]1
tissue/plasma ratio (Balb/c mouse, male, brain; intravenous, 1 mg/kg, 6 h; baseline: tissue over plasma): 3.5 ± 0.2

CC(C)(C(=O)N1CCOc2c(C#N)cncc2C1)C(F)F
subjects with TEAE (item: medical device site dermatitis; human, both sexes; oral, 20 mg once daily, 14 days, multiple ascending dose): 0%

Cc1ccc(Sc2ccccc2N2CCNCC2)c(C)c1
participants with TEAE (item: Thirst; healthy adult men; oral, 20 mg single dose, 10 day): 0%

O=C(Nc1nc2cccc(-c3ccc(CN4CCS(=O)(=O)CC4)cc3)n2n1)C1CC1
treatment-emergent adverse events (item: ear and labyrinth disorders; human rheumatoid arthritis patients; oral, 150 mg once daily, 4 weeks, regardless of relatedness): 0%

CCc1nn(C)c2nc(-c3ccc(C(=O)O)cc3)nc(NCc3ccc(F)cc3)c12
body weight (NSG mice; dose not given, day 2 of treatment): 19.9 g and 20.6 g and 19.7 g and 21.8 g

CCc1cc(C(=O)NC)c2nccc(N3CCc4c(cc(Cn5ccnc5)cc4-c4cn(C)nc4C(F)(F)F)C3=O)c2c1
heart weight (Sprague Dawley rat; oral, 100 mg/kg once daily, 7 days): 0.98 ± 0.044 g

OB1NN=Cc2ccccc21
peak area (stability, UPLC-MS; diluted serum; 7 day, 37 °C; higher = more compound remaining): 303000 a.u. and 328000 a.u. and 327000 a.u.

CN1CCC[C@H](CN2c3ccccc3Sc3ccccc32)C1.Cl
Cmax (fasted female ICR mouse, lymph node; oral, 16 mg/kg): 1370 ng/g

FC(F)(F)c1ccc(CNc2ccc(Cc3c[nH]c4ncc(Cl)cc34)cn2)cn1
treatment-related adverse events (item: Dysgeusia; patients with advanced solid tumours, all cohorts; oral, 1000 mg/day, any grade): 22%
